Published values pooled from the literature.
Each numbered part is a random draw from the data of one study; scales do not carry over between parts. Changes are numbered by the printed parent chain.

Series 1
Target: Histone acetyltransferase KAT6A, both winged helices, GST fusion (KAT6A, Homo sapiens, UniProt Q92794, residues 1-181)
Method: protein binding microarray
Molecule type: double-stranded DNA, one strand shown
Sample: in vitro
Concentration: not given
Notes: 8-mer, flanks averaged, mean of 2 arrays, mostly near background
Reference: not given
Direction: higher = stronger binding
Quantity: E-score
Construct (chain): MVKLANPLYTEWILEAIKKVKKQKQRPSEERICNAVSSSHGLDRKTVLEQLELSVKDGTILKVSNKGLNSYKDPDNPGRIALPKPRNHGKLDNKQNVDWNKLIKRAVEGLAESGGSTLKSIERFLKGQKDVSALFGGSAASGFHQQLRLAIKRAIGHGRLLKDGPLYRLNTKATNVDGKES
AATAAGGC: -0.0445
CCGGGACC: 0.219
GAAACATA: 0.107
CTCTAGTA: -0.0941
ATACCTGC: -0.0851
AGTAAAAC: -0.0907
GTGGGGAA: -0.0829
AATATGAG: -0.0494
CTTATTCA: -0.104
AGGCTCGA: -0.0157
CGGGCCCG: 0.342
AGCGCGAA: 0.272
AAAGAAGT: -0.135
CAAATCTA: -0.0957
CGAGTGCC: 0.0536
AGGCAGGG: -0.308
GTCGGGGA: 0.127
GTGACAGA: -0.0135
CCGTAGCC: 0.181
ATTATCAG: -0.0267
GTTAGAAA: -0.0662
GGAGTACA: -0.0347
CTTCCCTA: -0.205
AACAGGCC: -0.0751
CAAGGATA: -0.0429

Series 2
Target: RNA binding protein fox-1 homolog 2, RRM domain, GST-SBP tag (RBFOX2, Homo sapiens, UniProt O43251-10, residues 100-194)
Method: RNA Bind-n-Seq
Molecule type: RNA
Sample: in vitro
Concentration: 365 nM
Notes: natural RNA segment, single round, ends assumed
Reference: no-protein control
Direction: higher = stronger binding
Quantity: RBNS enrichment (R)
Constant ends, left off below: GGGAGUUCUACAGUCCGACGAUC … UGGAAUUCUCGGGUGCCAA
Target sequence (chain): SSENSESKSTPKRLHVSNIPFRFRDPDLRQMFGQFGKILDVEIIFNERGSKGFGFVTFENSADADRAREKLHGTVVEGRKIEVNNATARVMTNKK
CGAGCUAUGCAACCUCUGUUCUUGUAUUUCUUAUGAUCUCUGAUGGGUUCUUCUCGAAAAUGCCAAGUGGAAGACUUUGUGGCAUGCUCCAGAUUUAAAUCCAGCUGAGG: 0.591
UGGCCUGAGGGCCCAAGAAGUCCUGGCGUCCACACCCACACCCCACUGUCCACGCACAUGGAGGAAAAGUUACUGCUGAAGACCCACUCGAUGGACGAUCUCAGCCUUGA: 0.33
AUGGAACACUCAGUGCCGUAGCCCAGGAAGGACUUGCGGUUUCUGAUAGUUCUGAAGGCAUGAGCAAGGCUUCAGAAAUGAUCACCACGCUUGCAGUUGAAAGUGCCAGU: 0.519
CUCAUCAUAAUAUUUUUAUUAGAAUGUUCUGAUGAUAAAAAUAAAACUUGUUUUCUUUAAAGAAAAAGUUGAUCUAAUUUUUCUCAAAACGCAGAGCUCCCCUCGUGCCU: 0.392
AUGCAUCAGACCCUGCCAGACGUGGGCCUGCUUCUUGGCUCACCCACGUUUUGCCUUUCUCCUGCCCCAAAUCAGGCAGCUCCCUUGGAGCAGGGUUUCCUCAGAUGAGG: 0.226
AGUCUCGUUCUGUUGUGUUCUGAGAAGAUGCCUGAGGCAGUAUGGGAGUUUCAACACCCCUGCUGUCCCUUUAACUUGUAUUGUCCUAGACCCUGUCCUGGAAGUUAGAG: 0.558
CUGGUACCUUCCCCCAGCUUUCCAUCUGAGGACCAGAAAAGUUGUGUCUCCCUUAGAUGAGAUCUAGACGCCCCCAAAUCCUUGAGAUGUGGGUAUAGCUCAGGGUAAGC: 0.334
GCCGCCGCCAACGACUCCAUCCCUGUCGGUCCUGAGCCGGGCCCACCCAAUCCUGCCCCCUGCCCAGGAAGAGCUGCCUGGGCCAGUUACCCCAAGGCCUGAGGACCCUC: 0.529
CCUGGGUUUUUCUUGGAAGAAAGGACUCUAGGGUGGAUGGUACCAGGCCUUCAGGGUUAGAUCAUCUGUCAAGUGUCACCGAUGGGGACUUCUCAUGACCAGAGGGCUCU: 0.24
CAAUCUCAGCCCUCCACGCCAAGGAGCCUUGCCCACCAGCCAAUCAAUGUUCGUCUCUGCCCUGAUGCUGCCUCAGGAUCCCCCAUUCCCCACCCUGGGAGAUGAGGGGG: 0.494
UUGUAAGUGUACCCCAAUCUCAGGGAGUAUAUCUGUAGUGCCACAGGCAAAAGAUCCACUCCUUCCCACACUCAUUUGCCUGAACUUACUCGAAGGGCUGCAUUUCUCUG: 1.21
AUCACAUAGCUUCAAAAACUCCUCCAGUUUGUGACAACAUGACAGGUGUGACAGCAUGACAGGUUUGCUCUGCUUCUGCAGAGUGGGCCCCAGAGGUCACUUAGGACUGA: 1.05

Series 3
Target: CCNB2, cyclin fold, Cln2 fusion (human)
Method: yeast growth competition, sequencing
Sample: yeast
Notes: weak parent motif
Reference: not given
Direction: higher = stronger binding
Quantity: normalised enrichment score
Parent: E2F1 docking peptide (human); PPVKRRLDLETDH; partner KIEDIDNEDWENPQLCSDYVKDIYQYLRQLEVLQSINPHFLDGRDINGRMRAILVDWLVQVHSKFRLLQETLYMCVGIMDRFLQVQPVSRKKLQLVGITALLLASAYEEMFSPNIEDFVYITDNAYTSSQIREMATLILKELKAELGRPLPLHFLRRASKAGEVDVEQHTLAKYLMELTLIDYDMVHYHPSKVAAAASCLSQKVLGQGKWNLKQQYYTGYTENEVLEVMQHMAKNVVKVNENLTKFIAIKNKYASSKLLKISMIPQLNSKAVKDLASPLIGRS
PHVKRRLDLETDH [P2H]: 0.437
PPVKRRLSLETDH [D8S]: 0.424
PPVKRRLNLETDH [D8N]: 0.523
PPVKRRLDLMTDH [E10M]: 0.349
PPGKRRLDLETDH [V3G]: -0.198
PPVKRRLDLETDI [H13I]: 0.803
PPVKRFLDLETDH [R6F]: 0.333
PQVKRRLDLETDH [P2Q]: 0.141
PPVYRRLDLETDH [K4Y]: -0.379
PPVKRRLFLETDH [D8F]: 1.08
PPNKRRLDLETDH [V3N]: 0.506
PPVKRILDLETDH [R6I]: 0.246
PRVKRRLDLETDH [P2R]: 0.0818
PPSKRRLDLETDH [V3S]: 0.36
PPVKRLLDLETDH [R6L]: 0.347
PPVKNRLDLETDH [R5N]: 0.299
PPVKCRLDLETDH [R5C]: 0.337
PPVIRRLDLETDH [K4I]: -0.178
PPVKIRLDLETDH [R5I]: -0.158
PPVKGRLDLETDH [R5G]: -0.103
PPVKRRLDLNTDH [E10N]: 0.619
PPWKRRLDLETDH [V3W]: 0.144
PPVKRRLDLETDK [H13K]: 0.851
PPVKRRLDLQTDH [E10Q]: 0.483
PPVKRRLDLEFDH [T11F]: 2.25

Series 4
Target: Interferon regulatory factor 5, full length, phosphomimetic (IRF5, Homo sapiens, UniProt Q13568-2, residues 1-514, K96S/S451D/S453D/S456D/S462D)
Method: protein-binding microarray
Molecule type: double-stranded DNA, one strand shown
Sample: in vitro
Concentration: 250 nM
Notes: 60-bp whole probe
With: salmon DNA 0.4 mg/ml
Reference: random background probes
Direction: higher = stronger binding
Quantity: log fluorescence
Constant ends, left off below: GCCTAGCAC … GTCTTGATTCGCTTGACGCTGCTG
TTAGGTCTCGGGTATCGGTTAGTGCTA: 3.4 z-score
TTAGATCTCAGTTTCCATTAGTGCTAG: 1.13 z-score
TCACTTTGCTCATTTTTCACTGTGCTA: 1.28 z-score
TTAGGTCTTGGTATCGGTTAGTGCTAG: 5.92 z-score
TTAGATATCGGGTTTCGATTTGTGCTA: 7.29 z-score
GACGGACTGGGCATCGGGACGTGCTAG: -0.703 z-score
AATAGCTTTTCATTTTTTAACGTGCTA: 1.47 z-score
GACGATTTCGGTTCCGGGACGTGCTAG: 6.86 z-score
GACGATATAGGGTTTCGAGACGTGCTA: 1.45 z-score
TTAGATTCCAGTTTCTATTAGTGCTAG: 3.81 z-score
TCAACTTCGGCCTCTAGGACTGTGCTA: 0.175 z-score
GACGGTTCCCTACTGCTGACGTGCTAG: -0.195 z-score
TTAGGACTGGGGACTGTGTTAGTGCTA: -0.236 z-score
TTTGCTCTGTGCATAGTTCTGTGCTAG: -0.187 z-score
CCATCGATTTCTCTTTCCCAAGTGCTA: 2.29 z-score
GAGGAACTGAGTTTCGAGACGTGCTAG: 4.82 z-score
TTTTTGTTGTTTTTTGGTTTGTGCTAG: 3.89 z-score
TTAGGACTGGTCTATCGGTTAGTGCTA: 2.36 z-score
GACGGTTTCGGGATCGGGACGTGCTAG: 5.69 z-score
TTAGGTTTCCGTTCCCTTTAGTGCTAG: 1.72 z-score
GACGGGCTGGGACTGGGGACGTGCTAG: -0.803 z-score
TTAGATATCAGTTTCAATTAGTGCTAG: 4.51 z-score
GACGTTATCGGTTTCGGGACGTGCTAG: 8.25 z-score

Series 5
Target: ABI1, truncated, D143A, DHFR fusion (Arabidopsis thaliana)
Method: DHFR PCA, deep sequencing
Sample: yeast
Notes: methotrexate growth selection, single substitutions
With: (+)-ABA 0.032 µM
Reference: wild-type fitted maximum
Direction: higher = stronger binding
Quantity: relative binding score
Parent: PYL1, truncated, DHFR fusion (Arabidopsis thaliana); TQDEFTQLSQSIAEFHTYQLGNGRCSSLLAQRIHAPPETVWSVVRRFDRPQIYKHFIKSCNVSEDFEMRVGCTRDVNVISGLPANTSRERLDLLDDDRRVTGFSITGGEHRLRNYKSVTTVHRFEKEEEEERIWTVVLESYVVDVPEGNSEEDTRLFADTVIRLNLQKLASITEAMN
K126V: 38.9%
E89I: 1.28%
R45I: -8.25%
S104A: 0.167%
D92T: 1.14%
F15D: -2.81%
S27D: 3.12%
F157G: -3.9%
G81E: 4.95%
G81V: -0.205%
K54F: -4.25%
P36L: 9.72%
E67N: 15%
I133Y: 8.6%
W134V: 12.2%
H34T: 1.88%
I105P: -8.22%
Y18K: -2.88%
R49G: 1.52%
R88E: 9.61%
